Assay results collected from several papers.
Every numbered part comes from another study and shows a few of its results, in no order.

Set 1 — technique: competition protein-binding microarray; form: double-stranded DNA, one strand shown; medium: in vitro; tested at: 2 µM; together with: Pho4 competitor, 0.05 µM; direction: higher = stronger binding; endpoint: fluorescence intensity; all sequences stand within: … GTCTTGATTCGCTTGACGCTGCTG
Target: Centromere-binding protein 1, full length, His-tagged (CBF1, Saccharomyces cerevisiae, UniProt P17106, residues 1-351)
UniProt P17106, sequence (whole entry, looked up): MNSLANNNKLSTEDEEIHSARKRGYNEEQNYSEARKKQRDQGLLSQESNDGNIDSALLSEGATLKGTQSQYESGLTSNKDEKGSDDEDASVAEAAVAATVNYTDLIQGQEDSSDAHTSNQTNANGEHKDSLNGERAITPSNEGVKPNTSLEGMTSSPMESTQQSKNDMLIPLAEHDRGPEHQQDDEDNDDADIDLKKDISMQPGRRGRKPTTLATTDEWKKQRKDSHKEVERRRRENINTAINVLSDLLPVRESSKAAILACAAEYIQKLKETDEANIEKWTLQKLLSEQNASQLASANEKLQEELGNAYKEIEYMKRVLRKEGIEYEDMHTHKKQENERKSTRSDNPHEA
Notes: whole 60-bp probe, lowest competitor level
TATGCGATGAATACGCACATGGGCTCTCCTGGCGGA: 74.1 a.u.
ACCAGAAAAAAAACACACGTGATGGCCACCAGGAGC: 3180 a.u.
CTTCTGTAAATTTGCCTAGTGGGTGGACGCGCCCCG: 75.5 a.u.
GCCGCTTCTTTATGCACCGTGGAGTAATTACCGAAT: 83.6 a.u.
ACAACAAACAAAGGCAACGTGCAAAAAACAACCATC: 155 a.u.
CGGGGTTAAGTTTGCGCTGTGGGTGGCTTGCAGCAG: 79 a.u.
GTCTTGTCTCATTGAGAAGTGGGTGTCCCCACTTCA: 100 a.u.

Set 2 — technique: RNA Bind-n-Seq; form: RNA; medium: in vitro; tested at: 365 nM; baseline: no-protein control; direction: higher = stronger binding; endpoint: RBNS enrichment (R)
Target: RNA binding protein fox-1 homolog 2, RRM domain, GST-SBP tag (RBFOX2, Homo sapiens, UniProt O43251-10, residues 100-194)
Notes: natural RNA segment, single round, ends assumed
All sequences stand within: GGGAGUUCUACAGUCCGACGAUC … UGGAAUUCUCGGGUGCCAA
Construct (chain): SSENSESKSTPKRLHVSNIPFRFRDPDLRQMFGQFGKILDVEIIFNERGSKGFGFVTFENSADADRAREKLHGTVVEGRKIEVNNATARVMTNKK
CCCCCUCCUGCAACCAGGCUACCUGAAGACCUUUAUGGAGGUGAAAGGGAAACUAAAUUGUUCCCUGGAUUCCAGGAGAUGGUCGGCACAGAUGGUCGUCACGUGGGACC: 0.286
CCAUGUAAUUUUCCCACUGCCACAGACCUCUCCAACCCAGGGCCCCUGGACAGCACAGAUCCAGUGUGUUGCUGGCACUUGAGGUGUAAUAAAUGGCCUGGGGUGCUGCC: 0.474
GGGGAAACCUCCUUCCACCUGAGCUUGCUUGAAGGGACCCAGAGUCUUUGGGCCCAGAUCUUUAAACCUUUGUGUCGUGUUGCAGCAGAGUGACGAUGGGGGUUGGGGGG: 5.35
ACCCCCCACCAAUGUCUUAAUCCCACAUUUUCUUCACAACUUUUAGCAUCAGCUCAGACCGUGGGGUUCCACUGGGUAUUGGGAAUUAGGCUCCCCCACUAGCUUUCAGG: 0.627
GGGCUCUCCGGUGCAGCUUUAACUGCAGCCGCUCUGGUAAGCCGCUCUUAUUUCCCCUUCUGUCUGCAGCCAGUCAUGUGGCAUGGGAGCUGUGCUGGGGAGGCAGUGUA: 2.96
AGUGAACGUUUCCAUCGUUAGAAUGUUUUCUCUGGCCAUUUGUGGAUUUAAUGCACUUGACGUGGAUUAAGUUAUUCUGAGCAUGUUACUGUAAUGAUUCUCAAAUUAAC: 1.13
GAAGCUGAUGCCAGCAUGUCACUGGUUUUGAAGGGAUGAGCCCAGACUUGAUGUUUUGGGAUUGUCCUUAUUUUAACCUCAAGGUCUCGCAUGGUGGGGCCCCUGACCAA: 1.14

Set 3 — technique: protein binding microarray; form: double-stranded DNA, one strand shown; medium: in vitro; tested at: not given; baseline: not given; direction: higher = stronger binding; endpoint: E-score
Target: Histone acetyltransferase KAT6A, both winged helices, GST fusion (KAT6A, Homo sapiens, UniProt Q92794, residues 1-181)
Notes: 8-mer, flanks averaged, mean of 2 arrays, mostly near background
Construct (chain): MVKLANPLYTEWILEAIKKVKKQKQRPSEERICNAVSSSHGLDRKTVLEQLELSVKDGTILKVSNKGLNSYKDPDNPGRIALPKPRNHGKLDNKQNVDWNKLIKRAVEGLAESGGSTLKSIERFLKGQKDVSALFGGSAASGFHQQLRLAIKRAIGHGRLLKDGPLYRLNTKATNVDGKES
ACCTGTAC: -0.00946
AACTGCAC: -0.142
CTAGATGC: -0.00721
CATAAAGG: -0.133
TAAAGTCA: -0.165

Single results of other studies
PhoQ, residues 284 288 289 292 302 303 DDMDFR
fold induction (PhoP, residues 12 14 15 18 19 NQFFI (Escherichia coli, UniProt P23836); Sort-seq, item: YFP reporter; E. coli; PhoQ-PhoP variant library, together with: 10 µM Mg2+; baseline: high Mg2+ state, higher = stronger signaling): 1.04

Excerpt of the above (set 2):
GGGCUCUCCGGUGCAGCUUUAACUGCAGCCGCUCUGGUAAGCCGCUCUUAUUUCCCCUUCUGUCUGCAGCCAGUCAUGUGGCAUGGGAGCUGUGCUGGGGAGGCAGUGUA: 2.96
AGUGAACGUUUCCAUCGUUAGAAUGUUUUCUCUGGCCAUUUGUGGAUUUAAUGCACUUGACGUGGAUUAAGUUAUUCUGAGCAUGUUACUGUAAUGAUUCUCAAAUUAAC: 1.13
